Assay results collected from several papers.
A part holds a random share of what one study measured. Changes are numbered by the printed parent chain.

Block 1 — method: DHFR PCA, deep sequencing; medium: yeast; added: (+)-ABA 58 µM; baseline: wild-type fitted maximum; reading: higher = stronger binding
Target: ABI1, truncated, D143A, DHFR fusion (Arabidopsis thaliana)
Setting: methotrexate growth selection, single substitutions
Starting sequence: PYL1, truncated, DHFR fusion (Arabidopsis thaliana); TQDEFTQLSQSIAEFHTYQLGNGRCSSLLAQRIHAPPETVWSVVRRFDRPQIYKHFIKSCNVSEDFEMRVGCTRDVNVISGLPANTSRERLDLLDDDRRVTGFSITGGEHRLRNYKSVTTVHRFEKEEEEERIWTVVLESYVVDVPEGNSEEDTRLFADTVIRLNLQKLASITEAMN
Substitution | relative binding score
L20C | 94.8%
N77Y | 90.1%
K54P | -6.79%
V78P | 35.9%
P83I | 4.99%
L112H | -2.49%
F66I | 68.5%
C72D | 84.2%
T39E | 83.7%
R74V | -4.62%
N114Q | 29.6%
T119Q | 73.8%
E67M | 77.4%
E89W | -13.9%

Block 2 — target: OGT, full length, His-tagged (human); method: phage display, sequencing; medium: in vitro; concentration: 1 µg OGT; baseline: input library; reading: higher = stronger binding
Setting: single substitutions, 15-mer displayed peptide, unchanged parent 19.6
Starting sequence: peptide; TAPFYPPAYQIQVFK; partner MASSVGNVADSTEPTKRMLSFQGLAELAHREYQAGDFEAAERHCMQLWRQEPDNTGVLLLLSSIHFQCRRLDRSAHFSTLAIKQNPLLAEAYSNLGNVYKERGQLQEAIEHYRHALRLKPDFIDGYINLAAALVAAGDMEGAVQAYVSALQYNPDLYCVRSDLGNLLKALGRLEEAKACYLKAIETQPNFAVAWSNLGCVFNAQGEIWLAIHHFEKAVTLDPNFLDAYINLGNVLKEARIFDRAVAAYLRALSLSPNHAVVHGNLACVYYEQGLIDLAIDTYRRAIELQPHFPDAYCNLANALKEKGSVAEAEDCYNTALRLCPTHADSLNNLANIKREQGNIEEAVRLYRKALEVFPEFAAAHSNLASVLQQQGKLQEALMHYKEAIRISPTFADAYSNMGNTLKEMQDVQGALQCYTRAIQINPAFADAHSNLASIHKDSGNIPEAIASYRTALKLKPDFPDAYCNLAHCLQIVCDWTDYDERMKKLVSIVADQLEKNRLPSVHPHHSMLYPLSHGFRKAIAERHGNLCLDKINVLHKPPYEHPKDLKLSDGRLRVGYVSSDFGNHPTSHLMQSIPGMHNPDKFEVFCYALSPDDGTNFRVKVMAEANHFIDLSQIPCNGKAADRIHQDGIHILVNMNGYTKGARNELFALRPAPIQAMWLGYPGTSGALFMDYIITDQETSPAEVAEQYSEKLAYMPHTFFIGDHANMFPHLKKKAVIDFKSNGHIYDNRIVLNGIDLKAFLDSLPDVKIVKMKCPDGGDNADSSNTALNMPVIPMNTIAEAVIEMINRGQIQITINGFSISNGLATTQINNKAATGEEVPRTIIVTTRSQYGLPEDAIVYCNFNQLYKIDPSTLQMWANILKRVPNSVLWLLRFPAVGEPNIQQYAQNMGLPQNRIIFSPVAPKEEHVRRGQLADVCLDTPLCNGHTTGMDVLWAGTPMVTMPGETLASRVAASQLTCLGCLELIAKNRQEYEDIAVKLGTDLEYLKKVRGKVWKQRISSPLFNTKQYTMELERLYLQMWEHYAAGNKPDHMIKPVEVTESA
Substitution | fold enrichment [fold]
TAPFYFPAYQIQVFK [P6F] | 3.58
TANFYPPAYQIQVFK [P3N] | 23.5
TAPFYPPAYQLQVFK [I11L] | 1.25
TAQFYPPAYQIQVFK [P3Q] | 23.3
TAPFYPRAYQIQVFK [P7R] | 1.37
TAPFYPPAYQIVVFK [Q12V] | 5.57
TAPFYPPAYQIQVFF [K15F] | 5.96
TAPFYPPADQIQVFK [Y9D] | 0.555
TAPFYPPAYQILVFK [Q12L] | 5.68
TAHFYPPAYQIQVFK [P3H] | 17
TAPFYIPAYQIQVFK [P6I] | 1.13
TAPFYPTAYQIQVFK [P7T] | 1.02
PAPFYPPAYQIQVFK [T1P] | 17.6
TAPKYPPAYQIQVFK [F4K] | 5.48
TDPFYPPAYQIQVFK [A2D] | 10.2
TAPFYPPAYQITVFK [Q12T] | 7.32
TAPFYMPAYQIQVFK [P6M] | 1.5
TAPFYPPAYQSQVFK [I11S] | 0.319
TAPFYPPHYQIQVFK [A8H] | 8.38

Block 3 — method: protein binding microarray; form: double-stranded DNA, one strand shown; medium: in vitro; concentration: not given; baseline: not given; reading: higher = stronger binding
Target: Histone acetyltransferase KAT6A, winged helix 2, GST fusion (KAT6A, Homo sapiens, UniProt Q92794, residues 85-181)
Setting: 8-mer, flanks averaged, mean of 2 arrays, mostly near background
Construct (chain): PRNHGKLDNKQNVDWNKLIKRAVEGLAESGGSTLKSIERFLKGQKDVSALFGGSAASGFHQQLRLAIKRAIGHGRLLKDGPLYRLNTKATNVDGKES
Strand | E-score
CATGGTGG | -0.0198
ACTGATAG | -0.0902
GGAAGGGA | 0.0902
ACATTCCA | -0.0534
GGGGCGTA | -0.0156
CACGAACG | 0.0259
CCGCGAAG | 0.138
GCGGGCCA | 0.101
ATGGTTGA | 0.0347
ACATGATC | -0.0823
AGAACAGA | 0.0992
ACCATGTG | -0.144
CAAATTTG | 0.0297
AGGTTGAT | -0.171
AGAGCACA | 0.176
ATCCCGGA | -0.0204
CACGGACG | 0.133
TAAGCGTA | -0.109
TCGTCGAA | -0.0773
TACAGACA | 0.143
CTTCTAGC | -0.0607
GGCGCTCA | -0.0283
GAGCAGGC | 0.0528
CAAAGGCG | -0.0776
AGTACTTC | 0.0107

Block 4 — target: CCND1, cyclin fold, Cln2 fusion (human); method: yeast growth competition, sequencing; medium: yeast; setting: weak parent motif; baseline: not given; reading: higher = stronger binding
Starting sequence: WEE1 docking peptide (human); HKTFRKLRLFDTP; partner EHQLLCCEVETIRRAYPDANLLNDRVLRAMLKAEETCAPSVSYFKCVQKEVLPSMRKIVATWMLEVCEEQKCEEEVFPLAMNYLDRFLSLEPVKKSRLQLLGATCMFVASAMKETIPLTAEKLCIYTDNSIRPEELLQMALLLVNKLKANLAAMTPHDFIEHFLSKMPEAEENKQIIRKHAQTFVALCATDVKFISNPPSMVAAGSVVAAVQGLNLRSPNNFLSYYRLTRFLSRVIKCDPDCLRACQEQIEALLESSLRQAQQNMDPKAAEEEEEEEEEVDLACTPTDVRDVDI
Substitution | normalised enrichment score
HKTFRKQRLFDTP [L7Q] | -0.0154
HKTFRKLRLFDQP [T12Q] | -0.122
HKTFRKLRDFDTP [L9D] | -0.0983
HKTFRKLALFDTP [R8A] | 0.0616
HKTFRKDRLFDTP [L7D] | -0.511
HKTFRKLRLFDTN [P13N] | 0.375
HKTFRKLRLFDWP [T12W] | 0.533
HKTFRKLRLTDTP [F10T] | -0.156
VKTFRKLRLFDTP [H1V] | -0.57
HKTFRKLRCFDTP [L9C] | -0.351
EKTFRKLRLFDTP [H1E] | 0.37
HKTFRTLRLFDTP [K6T] | -0.392
HKKFRKLRLFDTP [T3K] | -0.675
HKTFRKKRLFDTP [L7K] | -0.711
HKTFRKLRLYDTP [F10Y] | -1.15
HFTFRKLRLFDTP [K2F] | 0.244
HKTFRKLRLFVTP [D11V] | 0.0246
HKTFRKLRLWDTP [F10W] | -0.0157

Block 5 — method: RNA Bind-n-Seq; form: RNA; medium: in vitro; concentration: 200 nM; setting: whole 134-nt RNA, ends assumed; added: 150 mM KCl; baseline: input library; reading: higher = stronger binding
Target: Ras GTPase-activating protein-binding protein 1, full length (G3BP1, Homo sapiens, UniProt Q13283)
Chain of UniProt Q13283 (whole entry, looked up): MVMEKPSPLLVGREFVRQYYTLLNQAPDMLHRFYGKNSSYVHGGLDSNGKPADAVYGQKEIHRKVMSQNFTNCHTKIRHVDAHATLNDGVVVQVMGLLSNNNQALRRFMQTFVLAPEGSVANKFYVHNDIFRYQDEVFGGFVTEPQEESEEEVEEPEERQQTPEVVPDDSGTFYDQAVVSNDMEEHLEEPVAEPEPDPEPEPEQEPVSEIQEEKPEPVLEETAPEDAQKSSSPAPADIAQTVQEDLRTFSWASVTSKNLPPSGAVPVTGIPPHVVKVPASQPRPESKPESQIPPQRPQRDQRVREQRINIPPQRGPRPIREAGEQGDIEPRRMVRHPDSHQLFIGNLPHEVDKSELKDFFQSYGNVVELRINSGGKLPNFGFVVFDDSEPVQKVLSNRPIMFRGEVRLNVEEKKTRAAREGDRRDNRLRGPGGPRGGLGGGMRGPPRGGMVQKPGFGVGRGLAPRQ
Constant ends, left off below: GGGAGUUCUACAGUCCGACGAUC … UGGAAUUCUCGGGUGUCAAGG
Strand | log2 enrichment
CUCAAGUCCUGUGCUACACAUCGUAUGUACCGAAUCGGUUUUUGGUUUGGAGGAAAGUAUUAUGUUACGCCGUUCGGAUCUGCACUUCCA | -0.668
CACAGACAACACGCACCCACACAGACACAGAGGGAAGGGGUUGGGAUGGGGACAUGGUGCACAGCAGGGCGGGGUAGGACCCCAGCCCCU | 1.65
UAACUUUAGAGGAGGAUCUGAUGGAUAUGGCAGUGGAUGUGGAUUUGGGGAUGGCUAUAAUGGGUAUGGAGGAGGACCUGGAGGUGGCAA | 0.34
GUCCUGUGCUACACAUCGUAUGUACCGAAUCGGGAAAAAGGGGAAAAAGGAAAAAGGGAAAGUAUUAUGUUACGCCGUUCGGAUCUGCAC | -0.469
AGUCCUGUGCUACACAUCGUAUGUACCGAAUCGGGGUUUUUUUGGGGUGGGGAGGGGAAAGUAUUAUGUUACGCCGUUCGGAUCUGCACU | 0.756
AAGUCCUGUGCUACACAUCGUAUGUACCGAAUCGGGGUUUGGUUUGGGGUUUGGGGAAAGUAUUAUGUUACGCCGUUCGGAUCUGCACUU | -0.0186
ACCAUAAAGGUGGGCAUCUUUGGGAAGUGGGGCAAGGGGGGGAUAGGGAGGGGGGUAACACUUUGGGAACAGGUGGUCCCAGGUCGUUUC | 1.1
UCAAGUCCUGUGCUACACAUCGUAUGUACCGAAUCGGUUUGGUUUGGAAAAAGGAAAGUAUUAUGUUACGCCGUUCGGAUCUGCACUUCC | -0.796
AAGUCCUGUGCUACACAUCGUAUGUACCGAAUCGGGAAAGGGUGGGUUUUUUUGGGAAAGUAUUAUGUUACGCCGUUCGGAUCUGCACUU | 0.258
UAACUUUAGAGGAGGAUCUGAUGGAUAUGGCAGUGGACGUGGAUUUGGGGAUGGCUAUAAUGGGUAUGGAGGAGGACCUGGAGGUGUCAA | 0.0161
GUCCUGUGCUACACAUCGUAUGUACCGAAUCGGGGAAAAGGGGAAAAGGGGAAAAGGGAAAGUAUUAUGUUACGCCGUUCGGAUCUGCAC | 0.27
GCAGGAAGUAAAAACAAAUGGAAAUGCUUCGGAUAGUGGCAGGGGUGGGGGUUGCUAAGGAAAGGGUGGGACGGGAGUGGGUAAAGAGUU | 0.827
UUCCUUCCACGACCCCUGAAGAGCAGCGGUGGGUCUGAGCAUCCUAUCUCCAGGAAGCAGGCCAGCAGGCAAGCCAGCUGCCACCUCGUC | 0.0608
CAAGUCCUGUGCUACACAUCGUAUGUACCGAAUCGGGGUUUGGUUUGGGUUUGGGGAAAGUAUUAUGUUACGCCGUUCGGAUCUGCACUU | -0.0208

Mixed results
Substance | target | assay | system | setting | scale | quantity | value
PhoQ, residues 284 288 289 292 302 303 SVTLVV | PhoP, residues 12 14 15 18 19 TPWLV (Escherichia coli, UniProt P23836) | Sort-seq, item: YFP reporter | E. coli | PhoQ-PhoP variant library, added: 10 µM Mg2+ | baseline: high Mg2+ state, higher = stronger signaling | fold induction | 4.48

Repeated from above (block 4):
Substitution | normalised enrichment score
HKTFRKLRLFDQP [T12Q] | -0.122
HKTFRKLRLFDTN [P13N] | 0.375
HKTFRKQRLFDTP [L7Q] | -0.0154
HKTFRKLRDFDTP [L9D] | -0.0983
HKTFRKLRCFDTP [L9C] | -0.351
HKTFRKDRLFDTP [L7D] | -0.511
HFTFRKLRLFDTP [K2F] | 0.244
HKTFRKLRLFVTP [D11V] | 0.0246
VKTFRKLRLFDTP [H1V] | -0.57
HKTFRKLRLWDTP [F10W] | -0.0157
HKTFRKLALFDTP [R8A] | 0.0616
EKTFRKLRLFDTP [H1E] | 0.37
